Results gathered from unrelated publications.
Protocols differ between the studies behind these lines.
Medium: plasma

For `CC1(C)CNC(=O)c2ccccc21`, the AUC(0-inf) was 0.943 µg·h/mL (rat; intravenous, 1 mg/kg, single dose).
With `CC12CC3CC(C)(C1)CC(NC(=O)Nc1ccc(C(=O)N4CCCC(C(N)=O)C4)cc1)(C3)C2` (centres unmarked) the AUC(0-inf) was 10.2 µM·h (Sprague-Dawley rat; intravenous, 10 mg/kg).
For `Cn1cc(-c2cc(N3CCCS3(=O)=O)ccc2N[C@H]2CC[C@H](C)CC2)c2cc[nH]c2c1=O`, the AUC(0-inf) was 0.261 µg·h/mL (Sprague-Dawley rat; intravenous, 1 mg/kg).
With `Nc1nc(Cl)nc2c1ncn2Cc1cc(OCC(F)F)cc(OC(F)F)c1` the AUC(0-inf) was 10.6 µg·h/mL (Sprague-Dawley rat; intravenous, 2.5 mg/kg).
With `CC12CC3CC(C)(C1)CC(NC(=O)Nc1ccc(C(=O)N4CCC[C@H](C(N)=O)C4)cc1F)(C3)C2` the AUC(0-inf) was 3.96 µM·h (Sprague-Dawley rat; intravenous, 10 mg/kg).
The AUC(0-inf) of `Cn1cc(-c2cc(N3CCCCS3(=O)=O)ccc2N[C@H]2CC[C@H](C)CC2)c2cc[nH]c2c1=O` (stereo in doubt) is reported as 0.3 µg·h/mL (Sprague-Dawley rat; intravenous, 1 mg/kg).
`Cc1cc(N2CCC(C#N)(C3(C)CC3)C2=O)cc(C(=O)NCc2cc(F)cc(-c3cnn(C)c3)c2)n1` (racemic) gave an AUC(0-inf) of 5.3 µM·h (male Sprague-Dawley rat; oral, 3 mg/kg).
For `COc1cc(NC(C)=O)c2c(c1O)-c1c(OC)c(OC)cc3c1C(C2)N(C)CC3` (centres unmarked), the AUC(0-inf) was 38.8 µg·h/mL (HPLC; male Wistar rat; intravenous, 100 mg/kg).
`CCCN(c1ccc(C(=O)NCCC(=O)O)cc1)S(=O)(=O)c1cc(C)c(-c2ccc(C(C)(C)C)cc2)c(C)c1` has an AUC(0-inf) of 0.133 µg·h/mL (rat; oral, 5 mg/kg).
The AUC(0-inf) of `CNC(=O)N[C@]1(C)CCC[C@@]2(C)C3CC[C@@]4(C)C[C@]3(CCC21)CC4=O` (single isomer, unassigned) is reported as 1.09 µg·h/mL (male Sprague-Dawley rat; intravenous, 2 mg/kg).
The AUC(0-inf) of `O=C(N[C@@H](CC1CCCCC1)C(=O)N[C@@H](C[C@H]1CCNC1=O)C(=O)C(=O)NC1CC1)OCc1cccc(Cl)c1` is reported as 4.2 µg·h/mL (female Sprague-Dawley rat; oral, 10 mg/kg, single dose).
The AUC(0-inf) of `NC(=O)c1cccnc1.O.O=c1[nH]cc(F)c(=O)[nH]1.O=c1[nH]cc(F)c(=O)[nH]1.O=c1[nH]cc(F)c(=O)[nH]1` is reported as 14.1 µM·h (rat; oral, 0.06 mmol/kg).
For `CN1CCN(c2ccc(Nc3ncc(Cl)c(Nc4ccccc4P(C)(C)=O)n3)cc2Br)CC1`, the AUC(0-inf) was 4.91 µg·h/mL (male Sprague-Dawley rat; oral, 25 mg/kg).
The AUC(0-inf) of `CSCOC1C(=O)C2(C)C(OCSC)CC3OCC3(OC(C)=O)C2C(OC(=O)c2ccccc2)C2(O)CC(OC(=O)C(O)C(C=C(C)C)NC(=O)OC(C)(C)C)C(C)=C1C2(C)C` (centres unmarked) is reported as 1.14 µg·h/mL (male Sprague-Dawley rat; intravenous, 4 mg/kg).
